Published values from different studies.
Every numbered part comes from another study and shows a few of its results, in no order.
Sequence of UniProt Q00536 (whole entry, looked up): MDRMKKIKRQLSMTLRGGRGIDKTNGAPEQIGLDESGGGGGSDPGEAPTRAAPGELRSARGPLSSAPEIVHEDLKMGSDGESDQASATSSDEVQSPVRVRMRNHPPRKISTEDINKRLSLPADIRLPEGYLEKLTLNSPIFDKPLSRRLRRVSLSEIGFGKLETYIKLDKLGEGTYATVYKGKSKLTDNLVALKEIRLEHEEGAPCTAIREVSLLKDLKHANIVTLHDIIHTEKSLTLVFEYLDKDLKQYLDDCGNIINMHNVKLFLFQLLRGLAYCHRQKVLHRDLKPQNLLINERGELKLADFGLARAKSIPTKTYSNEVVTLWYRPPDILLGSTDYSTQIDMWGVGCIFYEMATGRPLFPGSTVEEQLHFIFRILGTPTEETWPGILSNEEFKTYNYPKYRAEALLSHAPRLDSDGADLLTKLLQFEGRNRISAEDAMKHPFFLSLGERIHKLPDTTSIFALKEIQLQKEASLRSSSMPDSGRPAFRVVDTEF
Sequence of UniProt P06239 (whole entry, looked up): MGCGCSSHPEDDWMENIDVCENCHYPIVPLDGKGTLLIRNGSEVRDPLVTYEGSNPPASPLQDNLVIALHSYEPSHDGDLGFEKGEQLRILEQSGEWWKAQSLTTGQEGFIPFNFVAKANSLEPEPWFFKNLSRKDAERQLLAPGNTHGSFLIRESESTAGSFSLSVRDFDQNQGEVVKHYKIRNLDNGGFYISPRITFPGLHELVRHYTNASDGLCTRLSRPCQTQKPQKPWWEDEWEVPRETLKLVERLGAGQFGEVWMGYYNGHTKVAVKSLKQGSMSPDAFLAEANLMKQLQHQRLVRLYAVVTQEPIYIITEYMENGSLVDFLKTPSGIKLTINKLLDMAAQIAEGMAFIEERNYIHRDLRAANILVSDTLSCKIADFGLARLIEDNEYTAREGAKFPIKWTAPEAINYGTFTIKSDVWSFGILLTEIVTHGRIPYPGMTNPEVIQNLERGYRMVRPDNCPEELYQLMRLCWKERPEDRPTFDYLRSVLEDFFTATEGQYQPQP
Sequence of UniProt Q04912 (whole entry, looked up): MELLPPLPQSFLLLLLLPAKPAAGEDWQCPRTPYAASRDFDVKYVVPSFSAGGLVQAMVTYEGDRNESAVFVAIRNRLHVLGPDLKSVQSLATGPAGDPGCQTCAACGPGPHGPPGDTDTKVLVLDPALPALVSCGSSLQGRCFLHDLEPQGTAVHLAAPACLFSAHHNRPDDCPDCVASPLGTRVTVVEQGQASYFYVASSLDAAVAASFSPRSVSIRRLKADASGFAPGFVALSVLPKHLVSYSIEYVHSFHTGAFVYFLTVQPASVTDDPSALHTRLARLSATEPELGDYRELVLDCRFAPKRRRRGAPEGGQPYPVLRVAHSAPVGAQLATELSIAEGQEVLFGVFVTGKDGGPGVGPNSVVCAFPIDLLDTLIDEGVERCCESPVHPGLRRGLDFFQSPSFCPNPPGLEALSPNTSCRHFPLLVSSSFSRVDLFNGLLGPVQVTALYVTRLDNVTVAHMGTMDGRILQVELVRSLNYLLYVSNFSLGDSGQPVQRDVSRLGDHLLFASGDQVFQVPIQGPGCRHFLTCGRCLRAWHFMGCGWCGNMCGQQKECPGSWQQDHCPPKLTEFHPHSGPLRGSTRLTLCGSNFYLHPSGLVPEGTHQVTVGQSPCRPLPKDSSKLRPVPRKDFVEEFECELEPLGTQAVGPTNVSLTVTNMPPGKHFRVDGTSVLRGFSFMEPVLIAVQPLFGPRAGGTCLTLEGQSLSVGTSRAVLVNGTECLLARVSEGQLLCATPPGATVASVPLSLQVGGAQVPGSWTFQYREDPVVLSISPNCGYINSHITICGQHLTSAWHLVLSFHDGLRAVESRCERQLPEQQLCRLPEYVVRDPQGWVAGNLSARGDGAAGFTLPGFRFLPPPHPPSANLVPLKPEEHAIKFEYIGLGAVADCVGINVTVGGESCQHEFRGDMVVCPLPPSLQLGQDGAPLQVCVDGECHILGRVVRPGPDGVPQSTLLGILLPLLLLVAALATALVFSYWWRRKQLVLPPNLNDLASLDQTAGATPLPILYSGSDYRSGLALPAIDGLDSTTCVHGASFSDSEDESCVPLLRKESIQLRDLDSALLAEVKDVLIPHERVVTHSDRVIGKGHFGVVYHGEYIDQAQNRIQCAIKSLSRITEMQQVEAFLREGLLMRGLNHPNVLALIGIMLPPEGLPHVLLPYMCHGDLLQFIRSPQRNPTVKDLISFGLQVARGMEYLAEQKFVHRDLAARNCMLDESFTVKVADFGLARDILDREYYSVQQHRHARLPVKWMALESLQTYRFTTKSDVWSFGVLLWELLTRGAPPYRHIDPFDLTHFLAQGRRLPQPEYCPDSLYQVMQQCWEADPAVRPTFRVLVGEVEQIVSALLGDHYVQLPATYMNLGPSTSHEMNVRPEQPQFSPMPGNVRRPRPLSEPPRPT
Sequence of UniProt Q13163 (whole entry, looked up): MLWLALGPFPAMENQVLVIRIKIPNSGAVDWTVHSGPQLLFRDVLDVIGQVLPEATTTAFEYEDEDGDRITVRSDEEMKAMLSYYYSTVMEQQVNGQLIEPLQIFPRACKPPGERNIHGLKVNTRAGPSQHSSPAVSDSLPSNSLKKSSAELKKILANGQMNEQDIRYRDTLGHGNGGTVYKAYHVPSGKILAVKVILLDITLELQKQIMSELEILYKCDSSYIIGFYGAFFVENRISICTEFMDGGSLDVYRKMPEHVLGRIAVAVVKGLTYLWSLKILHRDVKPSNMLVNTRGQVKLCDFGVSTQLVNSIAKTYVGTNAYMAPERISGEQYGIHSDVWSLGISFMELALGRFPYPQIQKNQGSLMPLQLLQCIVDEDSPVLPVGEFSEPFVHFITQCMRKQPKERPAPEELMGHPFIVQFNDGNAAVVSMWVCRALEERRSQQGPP
Sequence of UniProt P36896 (whole entry, looked up): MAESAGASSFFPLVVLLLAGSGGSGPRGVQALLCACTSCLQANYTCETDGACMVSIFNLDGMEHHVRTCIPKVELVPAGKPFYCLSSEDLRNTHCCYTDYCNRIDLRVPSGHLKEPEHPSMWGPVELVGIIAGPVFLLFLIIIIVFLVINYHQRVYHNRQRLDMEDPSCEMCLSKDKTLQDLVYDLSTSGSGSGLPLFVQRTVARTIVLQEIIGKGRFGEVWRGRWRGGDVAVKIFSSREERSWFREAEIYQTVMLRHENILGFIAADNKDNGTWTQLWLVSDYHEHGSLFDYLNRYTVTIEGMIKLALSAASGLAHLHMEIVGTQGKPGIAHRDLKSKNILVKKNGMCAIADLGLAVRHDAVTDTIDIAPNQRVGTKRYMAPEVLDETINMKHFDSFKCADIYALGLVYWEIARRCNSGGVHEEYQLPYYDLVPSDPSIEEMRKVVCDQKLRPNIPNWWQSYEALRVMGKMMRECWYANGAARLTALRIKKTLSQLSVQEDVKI
Sequence of UniProt O43283 (whole entry, looked up): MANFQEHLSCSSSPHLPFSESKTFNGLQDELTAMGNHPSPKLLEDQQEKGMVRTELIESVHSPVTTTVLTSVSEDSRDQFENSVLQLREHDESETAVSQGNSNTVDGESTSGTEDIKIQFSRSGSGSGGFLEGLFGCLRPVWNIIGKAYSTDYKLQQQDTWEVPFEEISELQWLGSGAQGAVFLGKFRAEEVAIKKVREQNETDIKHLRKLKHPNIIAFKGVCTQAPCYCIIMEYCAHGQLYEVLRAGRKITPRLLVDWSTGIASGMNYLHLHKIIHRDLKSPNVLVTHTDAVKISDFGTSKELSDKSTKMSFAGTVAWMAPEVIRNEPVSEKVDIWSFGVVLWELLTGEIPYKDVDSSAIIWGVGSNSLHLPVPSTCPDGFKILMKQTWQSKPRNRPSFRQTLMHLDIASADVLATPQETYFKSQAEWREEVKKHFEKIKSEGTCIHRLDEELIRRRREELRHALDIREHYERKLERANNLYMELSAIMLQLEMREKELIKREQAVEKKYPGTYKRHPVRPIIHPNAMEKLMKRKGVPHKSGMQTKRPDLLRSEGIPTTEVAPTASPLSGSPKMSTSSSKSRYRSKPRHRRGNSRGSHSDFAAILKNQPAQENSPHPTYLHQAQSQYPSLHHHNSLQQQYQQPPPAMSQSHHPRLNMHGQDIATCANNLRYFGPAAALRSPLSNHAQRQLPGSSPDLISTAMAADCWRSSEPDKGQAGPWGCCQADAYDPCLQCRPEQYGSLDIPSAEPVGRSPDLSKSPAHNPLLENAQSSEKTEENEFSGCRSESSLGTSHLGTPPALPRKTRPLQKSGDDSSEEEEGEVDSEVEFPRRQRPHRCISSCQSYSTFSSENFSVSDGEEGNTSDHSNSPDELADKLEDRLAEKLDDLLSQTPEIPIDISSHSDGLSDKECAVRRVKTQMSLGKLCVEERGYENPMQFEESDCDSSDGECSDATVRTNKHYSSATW
Sequence of UniProt Q8WTQ7 (whole entry, looked up): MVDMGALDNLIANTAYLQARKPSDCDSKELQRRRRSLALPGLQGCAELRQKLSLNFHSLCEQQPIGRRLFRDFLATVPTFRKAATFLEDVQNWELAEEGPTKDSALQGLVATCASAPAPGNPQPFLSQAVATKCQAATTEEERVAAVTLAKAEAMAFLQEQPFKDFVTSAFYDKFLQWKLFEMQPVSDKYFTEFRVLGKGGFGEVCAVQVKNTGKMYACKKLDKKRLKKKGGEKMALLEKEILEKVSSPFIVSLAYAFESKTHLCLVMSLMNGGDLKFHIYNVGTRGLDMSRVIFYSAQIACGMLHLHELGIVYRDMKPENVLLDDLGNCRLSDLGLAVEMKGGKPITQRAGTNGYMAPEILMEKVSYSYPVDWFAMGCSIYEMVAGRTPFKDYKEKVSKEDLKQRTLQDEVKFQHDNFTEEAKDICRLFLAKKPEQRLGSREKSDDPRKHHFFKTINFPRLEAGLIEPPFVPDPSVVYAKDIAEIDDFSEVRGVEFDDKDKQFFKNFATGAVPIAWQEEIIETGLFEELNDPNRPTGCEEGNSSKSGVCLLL

Study 1
Target: Histone acetyltransferase KAT6A, winged helix 1, GST fusion (KAT6A, Homo sapiens, UniProt Q92794, residues 1-85)
Technique: protein binding microarray
Molecule type: double-stranded DNA, one strand shown
Sample: in vitro
Tested at: not given
Notes: 8-mer, flanks averaged, mean of 2 arrays, mostly near background
Baseline: not given
Direction: higher = stronger binding
Target sequence (chain): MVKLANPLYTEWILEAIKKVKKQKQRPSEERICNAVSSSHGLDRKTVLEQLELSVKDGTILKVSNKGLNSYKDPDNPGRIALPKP
The E-score of `CAGTTCCA` is reported as -0.208.
With `CGGCGACG` the E-score was 0.424.
`CATGCGTA` gave an E-score of 0.204.
For `GTTCTATA`, the E-score was -0.0153.
`ACGTACCG` has an E-score of 0.103.
`AAGCACGT` has an E-score of -0.252.
For `CATGTATA`, the E-score was -0.177.
With `CGGCGTAC` the E-score was 0.39.

Study 2
SMILES: COc1cc2ncnc(Nc3ccc(Oc4ccccc4)cc3)c2cc1OC
Effect on: enzyme activity
Mode: inhibitor
Tested at: 0.5 µM
Baseline: control
For ACVR1B (Homo sapiens, UniProt P36896): remaining activity read 97.5%.
It gave 103% for remaining activity (GRK7 (Homo sapiens, UniProt Q8WTQ7)).
For LCK (Homo sapiens, UniProt P06239): remaining activity read 4.72%.
For FGFR1 (Homo sapiens, UniProt P11362): remaining activity read 85%.
MST1R (Homo sapiens, UniProt Q04912) — remaining activity: 95.7%.
The remaining activity was 93.1% (JAK3 (Homo sapiens, UniProt P52333)).
The remaining activity was 107% (MAP3K5 (Homo sapiens, UniProt Q99683)).

Study 3
SMILES: CC(=O)Nc1c(C(C)=O)c(=O)n(C)c2nc(-c3ccc(Cl)cc3Cl)c(-c3ccc(Cl)cc3)cc12
Effect on: cell-free assay
Technique: competition with immobilised ligand
Tested at: 1 µM
MAP3K13 (Homo sapiens, UniProt O43283) — remaining binding: 100%.
CDK16 (Homo sapiens, UniProt Q00536) — remaining binding: 100%.
The remaining binding was 100% (NIM1K (Homo sapiens, UniProt Q8IY84)).
The remaining binding was 94% (MAP2K5 (Homo sapiens, UniProt Q13163)).

Study 4
Target: Prothrombin, mature alpha-thrombin (F2, Homo sapiens, UniProt P00734)
Technique: aptamer microarray, sandwich
Molecule type: DNA with 2'F-ANA
Sample: in vitro
Tested at: 200 nM
Notes: whole 15-mer aptamer, many near background
Added: Cy3 exosite-II aptamer, 400 nM
Direction: higher = stronger binding
Oligonucleotide: GGTTGGTGTGGTTGG
Under “mean fluorescence intensity”, `2'F-ANA at 1 2 5 6 9 13 14` is recorded as 47.4 a.u.
For `2'F-ANA at 1 4 5 6 9 12 13`, “mean fluorescence intensity” read 72.7 a.u.
For `2'F-ANA at 1 2 4 5 7 10 12 13`, “mean fluorescence intensity” read 791 a.u.
`2'F-ANA at 2 3 9 11 12 13 15` — result for “mean fluorescence intensity”: 819 a.u.
For `2'F-ANA at 2 4 5 10 11 12 15`, “mean fluorescence intensity” read 83.6 a.u.
For `2'F-ANA at 1 4 6 7 9`, “mean fluorescence intensity” read 109 a.u.
`2'F-ANA at 1 2 3 5 11 14 15` — result for “mean fluorescence intensity”: 64.9 a.u.
`2'F-ANA at 2 3 7 10 11 12 14 15`: “mean fluorescence intensity” 262 a.u.

For quick reference, copied from above (study 2):
For LCK (Homo sapiens, UniProt P06239): remaining activity read 4.72%.
For FGFR1 (Homo sapiens, UniProt P11362): remaining activity read 85%.
